# Measured values gathered from unrelated publications.
# Parts stem from different laboratories: compare values within a part only.

# Set 1 — method: RNA Bind-n-Seq; molecule type: RNA; medium: in vitro; concentration: 365 nM; reference: no-protein control; direction: higher = stronger binding
# Target: RNA binding protein fox-1 homolog 2, RRM domain, GST-SBP tag (RBFOX2, Homo sapiens, UniProt O43251-10, residues 100-194)
# Setting: natural RNA segment, single round, ends assumed
# Target sequence (chain): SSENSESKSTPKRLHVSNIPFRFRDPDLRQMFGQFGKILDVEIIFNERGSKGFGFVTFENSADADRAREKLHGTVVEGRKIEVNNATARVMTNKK
Oligonucleotide,RBNS enrichment (R)
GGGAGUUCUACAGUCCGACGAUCUGGACAUGGAGCUGUCCUUGGGAAGGACCCCACGCUCGGGGCCCCACUCCUGCUGGAUGUCCAGGCGGCCUUGGGAGGCCCAGCCCUGGGCCUGCCUGGGGCUUUAACCAUGGAAUUCUCGGGUGCCAA,0.204
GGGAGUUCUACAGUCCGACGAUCCACUAAAGGUUUCUUUAUUAGUUCUCCAGUUAAACCUAGAUCCCUCCCUGGUAGAUUGCGAACUCAAAGUUUUGUGAUCCCAAAGCCAUUCCACUGCAAAUGCCCAGCAGUGGAAUUCUCGGGUGCCAA,0.436
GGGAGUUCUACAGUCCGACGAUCGCUCCGUGUCCUUGUUUUUGACCUUGGCCCUUCCUGAAGUUGCUUUAUCUUACGAAGUAGCUACAGGGUUCUAGCAGUUUCCAGAAUAUAAUGUAGGGGGAUAGCGGGAUUGGAAUUCUCGGGUGCCAA,0.369
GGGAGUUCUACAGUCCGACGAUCUUCCUUCUUGAAAGCCUAAGAGUGCGUAUGCGUGUGUGUGUGUGUGUGUGUGUGUACGUGAGGCAGAAGAAUAUGACAGAUGUCAGCUUCUCCCUGUGUCAGAUGAUAUGUGGAAUUCUCGGGUGCCAA,1.41
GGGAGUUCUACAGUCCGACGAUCGAGCCGGGGACCAUGCAGCCCGAAACCUCCAGUCACUGCGCCCGGCAGGAGUCAGGAGCCAGGGACUGUGCAGCCUGGAACCUCCAGUCACUGUGCCCAGCAGGGUGGGCUGGAAUUCUCGGGUGCCAA,0.31
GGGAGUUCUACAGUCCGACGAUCAGGUUGGGAAGUGACCACUUGGAUGUCUGGGCCCUGCCAAGGGGACAGGGGGGGUCAGCAGGAGGCUGGCUGCUUCCUGCCCUCCCCCCUCUCCCUGGGCCUACCAUGCUUGGAAUUCUCGGGUGCCAA,0.189
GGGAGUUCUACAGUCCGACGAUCGCUUGUGUUGAGUAAAAAGGAGAUGCCCCAAUAUUCAAAGCUGCUAAAUGUUCUCUUUGCCAUAAAGACUCCGUGUUAACUGUGUAAACACUUGGGAUUUUUCUCCUAUGUGGAAUUCUCGGGUGCCAA,0.453

# Set 2 — method: RNA Bind-n-Seq; molecule type: RNA; medium: in vitro; concentration: 200 nM; setting: whole 134-nt RNA, ends assumed; together with: 150 mM KCl; reference: input library; direction: higher = stronger binding
# Target: Fragile X messenger ribonucleoprotein 1, C-terminal low-complexity region (Fmr1, Mus musculus, UniProt P35922)
Oligonucleotide,log2 enrichment
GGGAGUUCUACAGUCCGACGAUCUCCUGUGCUACACAUCGUAUGUACCGAAUCGGGCCCCCCGGCCCCCCGGGGCCCCCCGGGAAAGUAUUAUGUUACGCCGUUCGGAUCUGCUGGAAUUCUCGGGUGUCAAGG,-0.0236
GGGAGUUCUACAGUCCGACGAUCCUCAAGUCCUGUGCUACACAUCGUAUGUACCGAAUCGGGAGGGGAGGGAGGGGAAAGUAUUAUGUUACGCCGUUCGGAUCUGCACUUCCAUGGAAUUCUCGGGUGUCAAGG,1.23
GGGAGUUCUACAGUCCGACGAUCUAACUUUAGAGGAGGAUCUGAUGGAUAUAGCAGUGGACGUGGAUUUGGGGAUGGCUAUAAUGGGUAUGGAGGAGGACCUGGAGGUGGCAAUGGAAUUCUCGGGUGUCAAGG,0.366
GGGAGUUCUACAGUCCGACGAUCAAGUCCUGUGCUACACAUCGUAUGUACCGAAUCGGGAAAGGGGAAAGGGAAAGGGGAAAGUAUUAUGUUACGCCGUUCGGAUCUGCACUUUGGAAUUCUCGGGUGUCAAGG,0.282
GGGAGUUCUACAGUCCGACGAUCUUAGGGCCAAUCUUCGUCAAUAUGGUUUAGAGAAGUAUUACCUUGAUGUCCUGGUUUCAGAUGCAUCUAAACCUUCCUGGAGGAAGGGCAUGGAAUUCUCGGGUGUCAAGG,-0.643
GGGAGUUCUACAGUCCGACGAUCCACAGACAACACGCACCCACACAGACACAGAGGGAAGGGGUUGGGAUGGGGACAGGGUGCACAGCAGGGCGGGGUAGGACAAAAGCCCCUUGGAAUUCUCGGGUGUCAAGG,0.898
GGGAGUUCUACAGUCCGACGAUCCCUCAAGUCCUGUGCUACACAUCGUAUGUACCGAAUCGGUGGGUGGGUGGGGAAAGUAUUAUGUUACGCCGUUCGGAUCUGCACUUCCAGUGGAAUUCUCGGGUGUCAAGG,1.22
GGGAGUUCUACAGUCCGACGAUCAGUCCUGUGCUACACAUCGUAUGUACCGAAUCGGGUUUGGGUUUGGGUUUUUUUGGGAAAGUAUUAUGUUACGCCGUUCGGAUCUGCACUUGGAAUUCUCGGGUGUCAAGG,0.424
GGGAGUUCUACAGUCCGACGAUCUAACUUUAGAGGAGGAUCUGAUGGAUAUGGCAGUGGACGUGGCUUUGGGGAUGGCUAUAAUGGGUAUGGAGGAGGACCUGGAGGUGGCAAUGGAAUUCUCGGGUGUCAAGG,0.158

# Set 3 — method: protein-binding microarray; molecule type: double-stranded DNA, one strand shown; medium: in vitro; concentration: 250 nM; setting: 60-bp whole probe; together with: salmon DNA 0.4 mg/ml; reference: random background probes; direction: higher = stronger binding; all sequences stand within: GCCTAGCAC … GTCTTGATTCGCTTGACGCTGCTG
# Target: Interferon regulatory factor 5, full length, phosphomimetic (IRF5, Homo sapiens, UniProt Q13568-2, residues 1-514, K96S/S451D/S453D/S456D/S462D)
Oligonucleotide,log fluorescence [z-score]
TTACATTTCGGGTATCGATTAGTGCTA,7.49
GAAGGTATCCTACTGCTGACGTGCTAG,-0.265
TTAGGACTGCTAGTGCTTTAGTGCTAG,-0.179
TTAGGTTTCCTTATCCATTAGTGCTAG,1.23
GACGATATCAGACTGAAGACGTGCTAG,0.37
TCTTTTTGCTTTCTTTATGCGTGCTAG,2.84

# Further values, each from its own experiment
Molecule,target,assay,system,conditions,how to read,endpoint,result
"PhoQ, residues 284 288 289 292 302 303 SMYGEC","PhoP, residues 12 14 15 18 19 AYFRS (Escherichia coli, UniProt P23836)","Sort-seq, measured: YFP reporter",E. coli,"PhoQ-PhoP variant library, together with: 10 µM Mg2+","reference: high Mg2+ state, higher = stronger signaling",fold induction,7.26

# For quick reference, copied from above (set 1):
Oligonucleotide,RBNS enrichment (R)
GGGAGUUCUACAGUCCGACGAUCCACUAAAGGUUUCUUUAUUAGUUCUCCAGUUAAACCUAGAUCCCUCCCUGGUAGAUUGCGAACUCAAAGUUUUGUGAUCCCAAAGCCAUUCCACUGCAAAUGCCCAGCAGUGGAAUUCUCGGGUGCCAA,0.436
